Experimental data of several laboratories.
Converted amounts (≈) assume the structure as drawn.

C=CC(=O)Nc1cccc(Cn2ncc3cnc(Nc4cnn(CCOC)c4)nc32)c1  percent of control (CAMK1 human; binding, KINOMEscan; 100 nM; lower = stronger binding): 100%
Fc1ccc(Nc2nc(NC3CCCCC3)c3ccccc3n2)cc1F  pIC50 (β2AR/β1AR ICL1 chimera; β-arrestin2 recruitment, antagonist, BRET; together with: isoprenaline 1 µM): 5.7
COC1CN([C@H]2CC[C@H]([C@@]3(C)Oc4c(Cl)cc(C(=O)NCc5c(SC)cc(C)[nH]c5=O)c(C)c4O3)CC2)C1  log2 fold change (RNA-seq, refers to: NOS1AP; human, whole blood; dose not given, 24 h; baseline: pretreatment baseline): 2.42
Cn1ncc2cc(-c3cncc(Cl)c3N3CCC4(CCNC4=O)CC3)ccc21  log2 fold change (LS174T; gene expression, microarray, refers to: KRT17 mRNA; concentration not given, 24 h; baseline: untreated cells): -1.28
C=CC(=O)N1[C@H](c2ccc3c(c2)OCO3)c2[nH]c3ccccc3c2C[C@@H]1C(=O)N1CCN(C)CC1  relative co-enrichment (human cyclin E1 N112C-3xFLAG:CDK2; co-IP with TMT proteomics, refers to: ATAD3A; concentration not given, Q9NVI7; baseline: wild type DMSO): 117%
C=C[C@]1(C)C[C@@H](OC(=O)CSc2ccc(NC(=O)c3ccco3)cc2)[C@]2(C)[C@H](C)CC[C@]3(CCC(=O)[C@H]32)[C@@H](C)[C@@H]1O  EC50 of AUC24h/MIC (Mycoplasma gallisepticum; sigmoid Emax model; infected chickens): 7530 h
Nc1ncc(-c2cc(-c3cnn(CC(F)(F)F)c3)ncc2F)nc1C(=O)NC1CNCC(F)C1 (centres unmarked)  remaining binding (CAMKK2; KINOMEscan; 1 µM; baseline: DMSO control): 89%
CN1CCCNC(=O)c2cccc(c2)C(=O)NCCCN(C)CCCNc2cccc3c2C(=O)c2cccc(c2C3=O)NCCC1  log2 fold change (SAS; RNA-Seq, refers to: HUS1 mRNA; 1 µM, 6 h; baseline: untreated cells): -0.858
CNS(=O)(=O)Nc1nccc(Cc2c(C)c3ccc(Oc4ncccc4F)cc3oc2=O)c1F  IC50 (T98G; cell viability; 7 days): > 1000 nM
CCN(CC)CC(=O)Nc1cccc(-n2cc(-c3ccc4ccc(-c5cn(-c6cccc(NC(=O)CN(CC)CC)c6)nn5)cc4c3)nn2)c1  fold regulation (RCC4; PCR angiogenesis array, refers to: JAG1; 5 x IC50, 4 h, normoxia; baseline: untreated): -1.14
Cc1ncsc1-c1ccc(C(C)NC(=O)C2CC(O)CN2C(=O)C(NC(=O)CCCCCCCCCCN2CCCC(Nc3ncc(Cl)c(Nc4ccccc4S(=O)(=O)C(C)C)n3)C2)C(C)(C)C)cc1 (centres unmarked)  log2 fold change (22Rv1; RNA-seq, refers to: NUDT18 mRNA; concentration not given; baseline: DMSO): -1.87
CC(C)c1ccc(N(C)c2ccc3c(c2)OCC[C@H]3CNc2cnccc2C(=O)O)cc1  IC50 (HCC1954; cell growth or viability, ATP luminescence; 7 days): 40.6 nM
C=C(NC(=O)c1csc(-c2nc3c(cc2O)-c2nc(cs2)C(=O)NC(C(C)O)C(=O)NC(=C(C)OC)c2nc(cs2)C(=O)NC2c4nc(cs4)C(=O)NC(COC(=O)c4c5c6c(cccc6n4O)COC(=O)C(OC4CC(C)(O)C(N(C)C)C(C)O4)C2OC5)c2nc-3cs2)n1)C(N)=O (centres unmarked)  MIC50 (Enterococcus faecalis; agar dilution; vancomycin-intermediate, 20 isolates): 0.0156 µg/mL (≈ 0.0109 µM)
c1ccc(-c2n[nH]cc2-c2ccnc3ccccc23)nc1  log2 fold change (CAK1 (Candida albicans); kinase binding, MIB/MS competition; Candida albicans lysate; 1 µM; baseline: DMSO): 0.11

Repeated from above:
CN1CCCNC(=O)c2cccc(c2)C(=O)NCCCN(C)CCCNc2cccc3c2C(=O)c2cccc(c2C3=O)NCCC1  log2 fold change (SAS; RNA-Seq, refers to: HUS1 mRNA; 1 µM, 6 h; baseline: untreated cells): -0.858
CNS(=O)(=O)Nc1nccc(Cc2c(C)c3ccc(Oc4ncccc4F)cc3oc2=O)c1F  IC50 (T98G; cell viability; 7 days): > 1000 nM
